Experimental data of several laboratories.
Every numbered part comes from another study and shows a few of its results, in no order. Values joined by “and” are separate records of one study, mostly repeats; a detail may differ.
UniProt P11802, sequence (whole entry, looked up): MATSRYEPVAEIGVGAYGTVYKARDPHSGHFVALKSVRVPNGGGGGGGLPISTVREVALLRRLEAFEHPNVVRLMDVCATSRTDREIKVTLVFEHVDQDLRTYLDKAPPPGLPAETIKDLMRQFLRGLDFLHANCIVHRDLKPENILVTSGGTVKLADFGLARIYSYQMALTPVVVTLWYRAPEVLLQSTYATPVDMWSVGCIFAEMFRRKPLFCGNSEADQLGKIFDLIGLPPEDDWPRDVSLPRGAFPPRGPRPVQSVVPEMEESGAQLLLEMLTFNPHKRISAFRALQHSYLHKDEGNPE
UniProt Q15831, sequence (whole entry, looked up): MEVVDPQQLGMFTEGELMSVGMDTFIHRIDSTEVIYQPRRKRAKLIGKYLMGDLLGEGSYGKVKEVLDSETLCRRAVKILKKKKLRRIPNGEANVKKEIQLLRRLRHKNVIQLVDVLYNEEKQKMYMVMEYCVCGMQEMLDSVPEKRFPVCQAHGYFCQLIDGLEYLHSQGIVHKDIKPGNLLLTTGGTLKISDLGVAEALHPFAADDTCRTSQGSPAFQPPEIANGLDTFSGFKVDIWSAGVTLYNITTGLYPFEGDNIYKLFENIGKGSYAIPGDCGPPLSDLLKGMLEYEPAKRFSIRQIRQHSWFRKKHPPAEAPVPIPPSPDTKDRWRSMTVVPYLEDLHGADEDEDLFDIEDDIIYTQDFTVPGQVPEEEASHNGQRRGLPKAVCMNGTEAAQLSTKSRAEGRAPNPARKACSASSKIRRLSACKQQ
UniProt O94804, sequence (whole entry, looked up): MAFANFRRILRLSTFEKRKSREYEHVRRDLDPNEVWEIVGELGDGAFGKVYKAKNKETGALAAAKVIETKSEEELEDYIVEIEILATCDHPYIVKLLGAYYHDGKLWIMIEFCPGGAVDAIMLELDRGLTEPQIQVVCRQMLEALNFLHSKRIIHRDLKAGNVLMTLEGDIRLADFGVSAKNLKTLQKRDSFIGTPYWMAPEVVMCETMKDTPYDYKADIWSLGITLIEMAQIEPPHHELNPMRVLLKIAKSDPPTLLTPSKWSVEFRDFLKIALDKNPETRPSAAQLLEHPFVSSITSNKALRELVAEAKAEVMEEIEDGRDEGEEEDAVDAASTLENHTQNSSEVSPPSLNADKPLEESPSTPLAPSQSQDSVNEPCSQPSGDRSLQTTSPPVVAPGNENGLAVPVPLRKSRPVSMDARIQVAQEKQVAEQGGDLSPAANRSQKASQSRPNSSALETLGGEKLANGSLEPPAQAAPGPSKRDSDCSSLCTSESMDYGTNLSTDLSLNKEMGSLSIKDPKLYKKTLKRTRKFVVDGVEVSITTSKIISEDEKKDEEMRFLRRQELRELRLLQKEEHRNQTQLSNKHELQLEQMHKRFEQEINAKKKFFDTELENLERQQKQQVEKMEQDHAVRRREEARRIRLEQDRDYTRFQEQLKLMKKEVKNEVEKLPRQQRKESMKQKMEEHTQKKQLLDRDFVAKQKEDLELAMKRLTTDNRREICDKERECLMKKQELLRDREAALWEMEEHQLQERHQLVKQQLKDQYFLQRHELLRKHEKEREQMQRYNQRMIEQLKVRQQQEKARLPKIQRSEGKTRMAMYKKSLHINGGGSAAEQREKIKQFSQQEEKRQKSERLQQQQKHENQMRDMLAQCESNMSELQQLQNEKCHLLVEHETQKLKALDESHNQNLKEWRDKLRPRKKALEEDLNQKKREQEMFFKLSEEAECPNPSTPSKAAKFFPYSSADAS
UniProt Q92772, sequence (whole entry, looked up): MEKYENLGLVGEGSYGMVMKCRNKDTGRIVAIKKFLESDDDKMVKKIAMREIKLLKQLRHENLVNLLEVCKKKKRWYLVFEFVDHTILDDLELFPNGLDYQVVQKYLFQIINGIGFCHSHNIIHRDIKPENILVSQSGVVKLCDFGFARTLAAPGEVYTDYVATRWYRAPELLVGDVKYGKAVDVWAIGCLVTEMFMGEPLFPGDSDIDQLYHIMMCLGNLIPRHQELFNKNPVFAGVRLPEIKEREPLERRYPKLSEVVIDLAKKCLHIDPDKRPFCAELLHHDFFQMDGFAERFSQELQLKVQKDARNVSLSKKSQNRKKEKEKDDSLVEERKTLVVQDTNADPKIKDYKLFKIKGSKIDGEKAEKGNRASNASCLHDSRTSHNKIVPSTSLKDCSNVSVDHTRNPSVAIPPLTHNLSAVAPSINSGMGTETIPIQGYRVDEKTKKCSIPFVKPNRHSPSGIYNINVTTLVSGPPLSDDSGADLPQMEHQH
UniProt Q6PHR2, sequence (whole entry, looked up): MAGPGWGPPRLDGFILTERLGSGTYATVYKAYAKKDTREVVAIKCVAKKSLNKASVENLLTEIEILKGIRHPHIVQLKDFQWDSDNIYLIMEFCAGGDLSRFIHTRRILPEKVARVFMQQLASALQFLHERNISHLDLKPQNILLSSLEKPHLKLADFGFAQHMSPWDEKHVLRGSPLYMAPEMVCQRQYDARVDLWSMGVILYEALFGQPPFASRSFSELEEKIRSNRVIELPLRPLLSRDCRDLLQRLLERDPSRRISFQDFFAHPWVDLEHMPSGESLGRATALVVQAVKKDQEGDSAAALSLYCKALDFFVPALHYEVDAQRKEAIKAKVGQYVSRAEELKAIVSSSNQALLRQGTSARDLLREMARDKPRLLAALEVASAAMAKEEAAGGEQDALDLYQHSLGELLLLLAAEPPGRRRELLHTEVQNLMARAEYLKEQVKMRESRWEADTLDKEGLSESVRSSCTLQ
UniProt Q13555, sequence (whole entry, looked up): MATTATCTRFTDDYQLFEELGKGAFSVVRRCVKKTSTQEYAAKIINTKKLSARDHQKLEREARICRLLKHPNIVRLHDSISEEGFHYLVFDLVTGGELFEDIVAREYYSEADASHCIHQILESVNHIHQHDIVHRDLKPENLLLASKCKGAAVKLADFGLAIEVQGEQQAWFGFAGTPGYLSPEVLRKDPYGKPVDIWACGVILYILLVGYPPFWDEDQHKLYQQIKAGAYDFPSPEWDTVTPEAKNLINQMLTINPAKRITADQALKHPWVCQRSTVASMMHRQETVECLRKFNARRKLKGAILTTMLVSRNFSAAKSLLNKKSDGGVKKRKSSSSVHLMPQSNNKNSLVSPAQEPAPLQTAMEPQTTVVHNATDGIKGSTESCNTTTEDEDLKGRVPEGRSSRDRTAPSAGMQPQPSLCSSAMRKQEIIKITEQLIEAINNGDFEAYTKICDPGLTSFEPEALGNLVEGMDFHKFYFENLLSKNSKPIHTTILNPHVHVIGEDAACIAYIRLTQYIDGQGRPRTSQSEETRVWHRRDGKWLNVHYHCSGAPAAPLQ
UniProt Q8TD19, sequence (whole entry, looked up): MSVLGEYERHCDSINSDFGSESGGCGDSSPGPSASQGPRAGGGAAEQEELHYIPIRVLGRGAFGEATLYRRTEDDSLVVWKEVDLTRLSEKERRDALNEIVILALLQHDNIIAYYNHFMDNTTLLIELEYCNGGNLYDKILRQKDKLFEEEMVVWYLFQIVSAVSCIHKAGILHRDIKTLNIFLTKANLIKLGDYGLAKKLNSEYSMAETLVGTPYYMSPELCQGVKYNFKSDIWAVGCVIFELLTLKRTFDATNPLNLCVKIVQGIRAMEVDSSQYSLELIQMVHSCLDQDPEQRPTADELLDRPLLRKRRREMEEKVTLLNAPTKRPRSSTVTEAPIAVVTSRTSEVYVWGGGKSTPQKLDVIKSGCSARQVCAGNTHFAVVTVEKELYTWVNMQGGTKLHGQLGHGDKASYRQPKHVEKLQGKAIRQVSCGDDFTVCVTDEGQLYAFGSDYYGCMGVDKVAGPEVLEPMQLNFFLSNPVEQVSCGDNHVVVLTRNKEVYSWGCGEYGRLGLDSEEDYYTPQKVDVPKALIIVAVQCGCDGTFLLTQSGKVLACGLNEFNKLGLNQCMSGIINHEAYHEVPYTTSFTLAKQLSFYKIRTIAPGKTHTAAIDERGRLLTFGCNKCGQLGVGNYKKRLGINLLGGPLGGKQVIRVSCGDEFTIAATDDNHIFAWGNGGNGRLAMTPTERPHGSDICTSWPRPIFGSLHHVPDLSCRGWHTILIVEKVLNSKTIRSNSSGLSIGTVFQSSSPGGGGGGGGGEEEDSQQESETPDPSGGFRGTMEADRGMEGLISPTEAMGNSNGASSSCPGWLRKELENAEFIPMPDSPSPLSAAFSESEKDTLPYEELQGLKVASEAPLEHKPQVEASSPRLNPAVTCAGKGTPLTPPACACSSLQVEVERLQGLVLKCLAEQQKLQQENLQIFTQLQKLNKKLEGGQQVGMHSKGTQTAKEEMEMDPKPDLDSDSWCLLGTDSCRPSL
UniProt Q00535, sequence (whole entry, looked up): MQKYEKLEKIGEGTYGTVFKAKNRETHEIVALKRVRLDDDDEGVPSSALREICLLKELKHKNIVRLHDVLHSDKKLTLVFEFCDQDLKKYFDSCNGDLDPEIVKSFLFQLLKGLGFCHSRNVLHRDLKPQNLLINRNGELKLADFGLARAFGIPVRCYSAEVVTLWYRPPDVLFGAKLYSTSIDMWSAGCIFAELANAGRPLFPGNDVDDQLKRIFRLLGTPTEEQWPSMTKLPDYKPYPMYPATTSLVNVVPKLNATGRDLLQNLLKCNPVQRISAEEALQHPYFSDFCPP
UniProt Q9HC98, sequence (whole entry, looked up): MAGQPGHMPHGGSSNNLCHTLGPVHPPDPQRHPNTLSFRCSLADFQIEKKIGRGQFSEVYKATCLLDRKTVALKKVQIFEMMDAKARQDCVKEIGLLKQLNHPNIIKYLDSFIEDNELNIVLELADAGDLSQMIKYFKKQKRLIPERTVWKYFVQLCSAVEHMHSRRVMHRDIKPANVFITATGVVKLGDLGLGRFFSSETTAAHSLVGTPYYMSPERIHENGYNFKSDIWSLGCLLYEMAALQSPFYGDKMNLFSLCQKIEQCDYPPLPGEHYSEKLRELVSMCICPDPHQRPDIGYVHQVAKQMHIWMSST

Set 1
Structure (SMILES): Cc1cc(C)c(-n2ccn3nc(-c4cccnc4)cc23)cc1NC(=O)c1cc(C#N)cc(S(F)(F)(F)(F)F)c1
Method: competition with immobilised ligand
Concentration: 0.1 µM
Measurement: remaining binding
CSK (Homo sapiens, UniProt P41240); cell-free assay: 77.9%
EGFR (Homo sapiens, UniProt P00533, A750P/del747-749); cell-free assay: 78.7%
NEK6 (Homo sapiens, UniProt Q9HC98); cell-free assay: 93.9%
Receptor-type tyrosine-protein kinase FLT3, autoinhibited (FLT3, Homo sapiens, UniProt P36888); cell-free assay: 84.1%
PIK3CB (Homo sapiens, UniProt P42338); cell-free assay: 89.1%
PRKCH (Homo sapiens, UniProt P24723); cell-free assay: 99.5%
CAMK2G (Homo sapiens, UniProt Q13555); cell-free assay: 93.4%
LRRK2 (Homo sapiens, UniProt Q5S007); cell-free assay: 83.5%
TLK2 (Homo sapiens, UniProt Q86UE8); cell-free assay: 100%
STK11 (Homo sapiens, UniProt Q15831); cell-free assay: 75.9%
Tyrosine-protein kinase ABL1, phosphorylated (ABL1, Homo sapiens, UniProt P00519); cell-free assay: 74.6%
PIKFYVE (Homo sapiens, UniProt Q9Y2I7); cell-free assay: 74.9%
CDKL2 (Homo sapiens, UniProt Q92772); binding: 75.6%
CAMK1 (Homo sapiens, UniProt Q14012); cell-free assay: 60.4%
LIM domain kinase 1 (LIMK1, Homo sapiens, UniProt P53667); cell-free assay: 83.6%
MARK2 (Homo sapiens, UniProt Q7KZI7); cell-free assay: 100%
TTK (Homo sapiens, UniProt P33981); cell-free assay: 72%
ULK3 (Homo sapiens, UniProt Q6PHR2); cell-free assay: 100%
Cyclin-dependent kinase 4, with cyclin D3 (CDK4, Homo sapiens, UniProt P11802); cell-free assay: 86.2%
STK39 (Homo sapiens, UniProt Q9UEW8); cell-free assay: 64.6%
GRK4 (Homo sapiens, UniProt P32298); cell-free assay: 100%
KIT (Homo sapiens, UniProt P10721, A829P); cell-free assay: 50.9%
NEK9 (Homo sapiens, UniProt Q8TD19); cell-free assay: 72.2%
TBK1 (Homo sapiens, UniProt Q9UHD2); cell-free assay: 62.8%

Set 2
Host: mouse
Matrix: microsomes or S9
Concentration: 2 µM
Time: 0.5 h
Measurement: remaining compound
O=C(c1ccc(Cn2ccn3nc4c(c3c2=O)CCCC4)cc1)N1CCN(c2ncccn2)CC1: 0.309%
CS(=O)(=O)C1(C(=O)NC2CCCS(=O)(=O)C2)CCCC1 (stereo not shown): 89%
CC(C)c1noc(-c2cccc(=O)n2CC(=O)N2CCN(c3ccc(F)cc3)CC2)n1: 11.3%
CC(C)NS(=O)(=O)c1ccc2c(c1)nc(-c1ccncc1)n2C(C)C: 0.226%
CCn1c(CO)nnc1[C@H]1C[C@@H](NC(=O)CCn2c(C)cccc2=O)C1: > 100%
Cc1nc2ccc(N3CCN(c4ncc(C)s4)CC3)nn2n1: > 100%
COc1cc(=O)[nH]cc1C(=O)N1CCC(C)(C)C(c2ccccc2)C1 (stereo not shown): 38.8%
COc1ccc(OC)c2c1s/c(=N\C(=O)C(C)C)n2C: 0%
CC1(C(=O)NC2CCCC2)Cn2c(cc3ccsc32)C(=O)N1c1ccc2c(c1)OCCO2 (stereo not shown): 0.0918%
NS(=O)(=O)C1(CNc2nccc3cccnc23)CCC1: 0.0332%
COC1CCN(c2ncnc3c2c(Br)cn3S(=O)(=O)c2ccc(C)cc2)CC1: < 1%
Cc1noc2c1C(CC(C)C)C1=C(O)CC(C)(C)CC1=N2 (stereo not shown): 17.8%

Set 3
SMILES: O=c1cc(N2CCOCC2)oc2c1ccc1ccccc12
Observed: enzyme activity
Mode: inhibitor
Concentration: 0.5 µM
Baseline: control
Measurement: remaining activity
CHEK2 (Homo sapiens, UniProt O96017): 104%
Cyclin-dependent kinase 5, with p25 (CDK5, Homo sapiens, UniProt Q00535): 98.9%
DAPK1 (Homo sapiens, UniProt P53355): 90.9%
STK11 (Homo sapiens, UniProt Q15831): 104%
PRKACA (Homo sapiens, UniProt P17612): 102%
TGFBR2 (Homo sapiens, UniProt P37173): 122%
STK10 (Homo sapiens, UniProt O94804): 96.9%
PRKCA (Homo sapiens, UniProt P17252): 89.2%
GRK3 (Homo sapiens, UniProt P35626): 102%
MAPK9 (Homo sapiens, UniProt P45984): 101%
Cyclin-dependent kinase 4, with cyclin D1 (CDK4, Homo sapiens, UniProt P11802): 95.6%
STK39 (Homo sapiens, UniProt Q9UEW8): 95.7%
IKBKE (Homo sapiens, UniProt Q14164): 101%
TGFBR1 (Homo sapiens, UniProt P36897): 98.5%
OXSR1 (Homo sapiens, UniProt O95747): 108%
CAMK2D (Homo sapiens, UniProt Q13557): 99.9%
IKBKB (Homo sapiens, UniProt O14920): 105%
Tyrosine-protein kinase Lyn, isoform B (LYN, Homo sapiens, UniProt P07948): 104%
cGMP-dependent protein kinase 1, isoform beta (PRKG1, Homo sapiens, UniProt Q13976): 84.5%
CAMKK2 (Homo sapiens, UniProt Q96RR4): 104%
NEK2 (Homo sapiens, UniProt P51955): 94.8%
MAP3K3 (Homo sapiens, UniProt Q99759): 102%
Protein kinase C beta type, isoform beta-I (PRKCB, Homo sapiens, UniProt P05771): 93.4%
DAPK2 (Homo sapiens, UniProt Q9UIK4): 115%

Mixed results
CC(=O)N[C@@H](Cc1c[nH]c2ccccc12)C(=O)N[C@@H](CCC(=O)C=[N+]=[N-])C(=O)OC(C)C  naive cells (item: CD44 CD62L; tetramer+ CD8+ T cells, mouse, draining lymph node; dose not given): 66.4% and 65.7% and 64.3% and 69.6% and 62.7% and 64.7% and 74.4%

Some of these lines once more (set 2):
CC1(C(=O)NC2CCCC2)Cn2c(cc3ccsc32)C(=O)N1c1ccc2c(c1)OCCO2 (stereo not shown): 0.0918%
Cc1nc2ccc(N3CCN(c4ncc(C)s4)CC3)nn2n1: > 100%
COc1ccc(OC)c2c1s/c(=N\C(=O)C(C)C)n2C: 0%
CC(C)c1noc(-c2cccc(=O)n2CC(=O)N2CCN(c3ccc(F)cc3)CC2)n1: 11.3%
NS(=O)(=O)C1(CNc2nccc3cccnc23)CCC1: 0.0332%
Cc1noc2c1C(CC(C)C)C1=C(O)CC(C)(C)CC1=N2 (stereo not shown): 17.8%
CCn1c(CO)nnc1[C@H]1C[C@@H](NC(=O)CCn2c(C)cccc2=O)C1: > 100%
